{"data": "Earlier results that unrelated publications cite", "note": "Numbered parts are unrelated; values within a part may stem from several laboratories."}
{"data": "Series 1", "organism": "Cryptosporidium parvum", "tested at": "concentration not given"}
{"SMILES": "Cc1cccc(C)c1OCC(C)N (stereo not shown)", "activity": "inactive"}
{"SMILES": "OC(CCN1CCCCC1)(c1ccccc1)C1CCCCC1 (stereo not shown)", "activity": "inactive"}
{"SMILES": "CNCCCC12CCC(c3ccccc31)c1ccccc12", "activity": "inactive"}
{"SMILES": "Clc1ccccc1CN1CCc2sccc2C1", "activity": "inactive"}
{"SMILES": "CNCCC=C1c2ccccc2CCc2ccccc21", "activity": "inactive"}
{"SMILES": "CNCC[C@H](Oc1cccc2ccccc12)c1cccs1", "activity": "inactive"}
{"data": "Further values, each from its own experiment"}
{"SMILES": "CCCOc1ccc([C@@H]2[C@@H](C(=O)O)[C@H](c3ccc4c(c3)OCO4)CN2CC(=O)Nc2c(CC)cccc2CC)cc1", "tested on": "EDNRB", "test": "cell-based", "quantity": "IC50", "result": "1000 nM"}
{"SMILES": "CC(C)(C)NCC(O)c1cc(O)cc(O)c1 (stereo not shown)", "quantity": "pKa", "result": 9.67}
{"SMILES": "Nc1c(C(=O)NCc2ccc(C(=O)NCCCC3CCCCC3)cc2)cnn1-c1ccccc1", "tested on": "MAPK11 (human)", "test": "enzyme activity", "quantity": "IC50", "result": "32 nM"}
{"SMILES": "O=C(O)c1cc(Cl)ccc1O", "quantity": "pKa", "result": 2.68}
{"SMILES": "CNC(=O)Nc1ccc2c(c1)C1(CC2)OC(=O)N(CC(=O)N(Cc2ccc(F)cc2)[C@@H](C)C(F)(F)F)C1=O (single isomer, unassigned)", "tested on": "EP300", "test": "biochemical activity", "quantity": "IC50", "result": "> 10000 nM"}
{"SMILES": "Cn1c(=O)oc2ccc(-c3ccc(C[C@@H](C#N)NC(=O)[C@@H]4CNCCCO4)cc3)cc21", "test system": "human, urine", "setting": "dose not given", "how to read": "reference: dose", "quantity": "unchanged drug excreted in urine", "result": "~20%"}
{"SMILES": "COc1ccc2c(c1)O[C@H](c1ccc(OC)c(OC)c1)C[C@@H]2NC(=O)C1(c2ccc3c(c2)OC(F)(F)O3)CC1 (single isomer, unassigned)", "tested on": "CFTR", "test": "cellular activity", "quantity": "EC50", "result": "28 nM"}
{"note": "For quick reference, copied from above (further values, each from its own experiment):"}
{"SMILES": "CNC(=O)Nc1ccc2c(c1)C1(CC2)OC(=O)N(CC(=O)N(Cc2ccc(F)cc2)[C@@H](C)C(F)(F)F)C1=O (single isomer, unassigned)", "tested on": "EP300", "test": "biochemical activity", "quantity": "IC50", "result": "> 10000 nM"}
